Experimental data from different studies.
Each numbered part is a random draw from the data of one study; scales do not carry over between parts. Substitutions count along the parent as printed.

Set 1
Target: CCND2, cyclin fold, Cln2 fusion (human)
Technique: yeast growth competition, sequencing
Matrix: yeast
Setting: weak parent motif
Baseline: not given
Reading: higher = stronger binding
Starting sequence: SAMHD1 docking peptide (human); ASKSRVQLFKDDP
For `S2E`, “normalised enrichment score” read 0.312.
Under “normalised enrichment score”, `R5L` is recorded as -0.187.
For `K3T`, “normalised enrichment score” read -0.123.
Under “normalised enrichment score”, `K3R` is recorded as 0.129.
`V6H`: “normalised enrichment score” -0.0837.
`K3G`: “normalised enrichment score” 0.161.
Under “normalised enrichment score”, `S2Y` is recorded as 0.126.
For `R5M`, “normalised enrichment score” read -0.135.
`D12P`: “normalised enrichment score” -0.125.
`S2K` — result for “normalised enrichment score”: 0.0419.
Under “normalised enrichment score”, `S4V` is recorded as 0.111.
`L8P`: “normalised enrichment score” 0.383.
`D12A`: “normalised enrichment score” 0.185.
`R5N` — result for “normalised enrichment score”: -0.223.
`S4K`: “normalised enrichment score” -0.0469.
`K3P` — result for “normalised enrichment score”: 0.276.
For `F9H`, “normalised enrichment score” read 0.0716.
For `Q7C`, “normalised enrichment score” read 0.0587.
`L8N`: “normalised enrichment score” 0.266.
`K3F` — result for “normalised enrichment score”: 0.275.

Set 2
Target: TAR DNA-binding protein 43, full length, His tag (TARDBP, Homo sapiens, UniProt Q13148, residues 1-414)
Technique: RNA Bind-n-Seq
Molecule type: RNA
Matrix: in vitro
Concentration: 20 nM
Setting: 6-mer, flanks averaged, single round
With: 150 mM KCl
Baseline: input library
Reading: higher = stronger binding
Under “6-mer enrichment (R)”, `CAUAAU` is recorded as 0.667.
Under “6-mer enrichment (R)”, `CUAGUU` is recorded as 0.593.
For `CUCACC`, “6-mer enrichment (R)” read 0.602.
Under “6-mer enrichment (R)”, `GCGAGA` is recorded as 1.56.
`UUGCCA`: “6-mer enrichment (R)” 0.653.
`AUGUCU` — result for “6-mer enrichment (R)”: 0.637.
`AACGGC` — result for “6-mer enrichment (R)”: 0.831.
Under “6-mer enrichment (R)”, `CCCUGU` is recorded as 0.667.
`CAAGCC` — result for “6-mer enrichment (R)”: 0.667.
Under “6-mer enrichment (R)”, `GCACUC` is recorded as 0.674.

Set 3
Target: Histone acetyltransferase KAT6A, both winged helices, GST fusion (KAT6A, Homo sapiens, UniProt Q92794, residues 1-181)
Technique: protein binding microarray
Molecule type: double-stranded DNA, one strand shown
Matrix: in vitro
Concentration: not given
Setting: 8-mer, flanks averaged, mean of 2 arrays, mostly near background
Baseline: not given
Reading: higher = stronger binding
Construct (chain): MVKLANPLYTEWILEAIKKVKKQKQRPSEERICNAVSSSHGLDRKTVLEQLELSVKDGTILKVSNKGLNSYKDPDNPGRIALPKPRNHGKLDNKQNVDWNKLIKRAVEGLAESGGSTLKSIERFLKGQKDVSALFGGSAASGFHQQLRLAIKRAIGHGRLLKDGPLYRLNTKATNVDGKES
`ATAGCCCA` has an E-score of -0.243.
`AGATGATG` gave an E-score of -0.0802.
The E-score of `AGCCTTAG` is reported as -0.237.
With `ACCGGCAA` the E-score was 0.24.
For `CAACTTAA`, the E-score was -0.101.
`CCCTGATC` gave an E-score of -0.0721.
For `GATAGCAA`, the E-score was -0.224.
`CCGAGGGA` has an E-score of -0.0241.
With `ACTAACGG` the E-score was 0.138.
With `CCGCCTCA` the E-score was 0.222.
`CGCTTACG` has an E-score of 0.295.
`GATCGTCA` gave an E-score of -0.0534.
`ATCGTGAA` has an E-score of -0.00822.
For `AGTGTGTG`, the E-score was -0.0538.
The E-score of `CTCAGTAC` is reported as -0.0901.
`CCTACACC` has an E-score of -0.215.
With `ATAAGGCG` the E-score was 0.201.
`CGGACAAA` gave an E-score of 0.124.
`ATTGTCCG` has an E-score of 0.164.
For `AACCAAGC`, the E-score was -0.128.

Set 4
Target: RNA binding protein fox-1 homolog 2, RRM domain, GST-SBP tag (RBFOX2, Homo sapiens, UniProt O43251-10, residues 100-194)
Technique: RNA Bind-n-Seq
Molecule type: RNA
Matrix: in vitro
Concentration: 365 nM
Setting: natural RNA segment, single round, ends assumed
Baseline: no-protein control
Reading: higher = stronger binding
Constant ends, left off below: GGGAGUUCUACAGUCCGACGAUC … UGGAAUUCUCGGGUGCCAA
`CCUGAGCGAGUGUGUGAGCAUGCGGGGACAUGGGUGUGUAUGGCACACAUAGGUGCGUGUGUGUCUUUUGUAUUUUUUCUCCUCCAAGGAGCUGUGUCAGUGUGGACGUU` — result for “RBNS enrichment (R)”: 7.39.
`CAGUAGUUAGAUAUCACCUACAUAUACAUUUUUCCAUUUUAUGCUCUAUGAUCUGAAGAACAAAAAAAAAAGCUUUUUGACUUGUAUAAGAUUUAUGUCUACUGUAAACA` — result for “RBNS enrichment (R)”: 0.854.
`CUUUCUGGAAGACUCAAGAUAUGUCUCUUCAUUCUCUCUCAGUAUUUGUUUACUUUGGUUUUUUUGUUUUUAAUCUCAGAGAGAGGUGUGUUUAGUGGGCACAAGCUGUA` — result for “RBNS enrichment (R)”: 0.678.
For `UAUGUGAACAGUGAGAUGGCCGUUUCUGACUUGUAGAGAAAUUUUAAUAAACCUGGUUUCGUAAAUAGGUGUGGUGAAUUUCUUUCGAGUUCCAUCUGCUUUGCCUUUUG`, “RBNS enrichment (R)” read 0.876.
Under “RBNS enrichment (R)”, `CAUAGUUACUAAGUUUUUAUGAACUGUUGUGUCCUGUUAAUGCAUAUUGCCCUGUGACUCCAGUAUAUCUCACCUGUACUGACCAAACCUAAAUAAACAUUUUUAUUACG` is recorded as 0.444.
Under “RBNS enrichment (R)”, `AGCUGGACAGAAAAGGGGCAGACACACCGAGGAUGCGAUUUAAAAUAAAUGCAGAUGUUUACUUGGAUGGAGCCUGUGGAGGCUCAGUGUUGACUCUCAUCUAGAAUGGU` is recorded as 5.01.
`UUUUAUAUCUUGGCAGGUAGGAAUAUUAUAUUUGGAUGCAGAGUUCAGGGAAGAUAAGUUGGAAACACUAAAUGUUAAAGAUGUAGCAAACCCUGUCAAACAUUAGUACU`: “RBNS enrichment (R)” 0.534.
Under “RBNS enrichment (R)”, `AUCUUAGUAUAUGUAUUGGAUUCCUGUACUUCCAAAGUCCUGGAAUAUAGUUUUUUUAGUAUAAUUCCACUGCACUUAACACUAAUGUUCAUGUUGGUAUAGAAAUGUCU` is recorded as 0.609.
`CUGGCUCCAUGAUUCUCUGAGUGGUGGUUCCUUUGCACCCUGUAGAUGUUCUAGGAUAGUUGAUGCAUGUUACUAAAUUACGUAUGCAAGUCUGUGAGUGCGUCUGAGGG` — result for “RBNS enrichment (R)”: 5.99.
Under “RBNS enrichment (R)”, `AAUGUAUGCUGUGAGACAUGAAAUUAAAACAGACCUAUGAAAUAAAUUAUUUUAAAACCAGAAGAUUCAGAUUUUCCAAUGUUAAAUUUUUUUGAUAAGGUGGCUGAAUG` is recorded as 1.26.
`UUGCUUAAAACUGUACUCUUUUGCAAAUUAACAAUUUUAUCACUGAUUCAGAGUUAAAAAGAAGACUAACUUUUCAAGCAAAUGCAUCUGUAAAGAUGCUUUAGAUUAGA` — result for “RBNS enrichment (R)”: 0.377.
Under “RBNS enrichment (R)”, `AUUCGCAUGUUUAAUGUGACUUCCCCUCCCCGUCUGUGUUCUAACUUAUUUAUAAAAGGAUGAUGGCUGUAUUUUGAGUUUCUGCUGGAAACUUCCAUAAGGGGCAGCAG` is recorded as 2.65.

Set 5
Target: ABI1, truncated, D143A, DHFR fusion (Arabidopsis thaliana, UniProt P49597)
Technique: DHFR PCA, dose-response
Matrix: yeast
Setting: Hill fit, mean, not affinity
With: (+)-ABA, dose series
Reading: lower = more sensitive
Starting sequence: PYL1, truncated, DHFR fusion (Arabidopsis thaliana, UniProt Q8VZS8); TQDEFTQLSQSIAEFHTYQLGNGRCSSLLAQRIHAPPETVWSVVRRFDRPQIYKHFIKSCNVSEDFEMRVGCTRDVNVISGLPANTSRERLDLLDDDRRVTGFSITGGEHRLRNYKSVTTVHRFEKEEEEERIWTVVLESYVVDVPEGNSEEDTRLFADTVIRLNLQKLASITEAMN
`S80G` gave an ABA EC50 of 137 µM.
The ABA EC50 of `I172E` is reported as 39.5 µM.
`G23N` has an ABA EC50 of 3.26 µM.
The ABA EC50 of `E64P` is reported as 2.86 µM.
The ABA EC50 of `C60S` is reported as 34.2 µM.
`S63Q` gave an ABA EC50 of 1.81 µM.
`R98K` has an ABA EC50 of 2.81 µM.
`A175Y` gave an ABA EC50 of 4.71 µM.
For `R49S`, the ABA EC50 was 2.73 µM.
`R24T` has an ABA EC50 of 1.95 µM.
For `N149D`, the ABA EC50 was 130 µM.
With `V62F` the ABA EC50 was 13.2 µM.
`E151F` gave an ABA EC50 of 3.39 µM.
For `R90F`, the ABA EC50 was 174 µM.
The ABA EC50 of `Q19A` is reported as 3.52 µM.
For `V43E`, the ABA EC50 was 390 µM.
`G107L` gave an ABA EC50 of 400 µM.
For `R24F`, the ABA EC50 was 30.3 µM.
With `G71A` the ABA EC50 was 102 µM.
`T73L` gave an ABA EC50 of 2.26 µM.
`D97M` has an ABA EC50 of 4.26 µM.
`I79V` gave an ABA EC50 of 1.79 µM.
With `S27Q` the ABA EC50 was 12.6 µM.
For `D3I`, the ABA EC50 was 4.66 µM.

Set 6
Target: Prothrombin, mature alpha-thrombin (F2, Homo sapiens, UniProt P00734)
Technique: aptamer microarray, sandwich
Molecule type: DNA with 2'F-ANA
Matrix: in vitro
Concentration: 200 nM
Setting: whole 15-mer aptamer, many near background
With: Cy3 exosite-II aptamer, 400 nM
Reading: higher = stronger binding
Oligonucleotide: GGTTGGTGTGGTTGG
`2'F-ANA at 8 9 10 11 12 13 14`: “mean fluorescence intensity” 102 a.u.
`2'F-ANA at 1 2 3 4 5 6 7 10 13 14`: “mean fluorescence intensity” 49 a.u.
`2'F-ANA at 2 4 7 10 11 12 13 14`: “mean fluorescence intensity” 64.8 a.u.
For `2'F-ANA at 1 2 4 6 7 11 12 13 15`, “mean fluorescence intensity” read 148 a.u.
`2'F-ANA at 2 12 13 15`: “mean fluorescence intensity” 615 a.u.
`2'F-ANA at 1 2 4 5 7 9 10 12 13 14`: “mean fluorescence intensity” 49.2 a.u.
`2'F-ANA at 1 2 3 4 5 12 14` — result for “mean fluorescence intensity”: 48.1 a.u.
Under “mean fluorescence intensity”, `2'F-ANA at 1 3 4 5 9 10 11 15` is recorded as 48.2 a.u.
`2'F-ANA at 1 3 6 8 11`: “mean fluorescence intensity” 266 a.u.
`2'F-ANA at 1 3 4 5 8 14`: “mean fluorescence intensity” 44.5 a.u.
`2'F-ANA at 1 3 4 5 8 9 11 13 14` — result for “mean fluorescence intensity”: 45.7 a.u.
`2'F-ANA at 1 2 4 5 8 14 15`: “mean fluorescence intensity” 51.4 a.u.
For `2'F-ANA at 3 5 9 14`, “mean fluorescence intensity” read 55.5 a.u.
`2'F-ANA at 1 2 3 5 6 7 10 12 14`: “mean fluorescence intensity” 47.5 a.u.
`2'F-ANA at 2 4 5 6 7 8 12`: “mean fluorescence intensity” 245 a.u.
Under “mean fluorescence intensity”, `2'F-ANA at 5 6 7 8 10 12 14 15` is recorded as 52.6 a.u.
For `2'F-ANA at 2 3 5 11 12 14`, “mean fluorescence intensity” read 58.4 a.u.
Under “mean fluorescence intensity”, `2'F-ANA at 2 3 4 5 10 11 14` is recorded as 47.1 a.u.
`2'F-ANA at 1 4 5 6 9 11 13 15` — result for “mean fluorescence intensity”: 55 a.u.
`2'F-ANA at 1 4 5 7 8 9 10 15`: “mean fluorescence intensity” 64.1 a.u.
`2'F-ANA at 1 2 3 6 7 10 11 12 13 14 15`: “mean fluorescence intensity” 94.2 a.u.

For quick reference, copied from above (set 1):
Under “normalised enrichment score”, `S4V` is recorded as 0.111.
`L8P`: “normalised enrichment score” 0.383.
`D12A`: “normalised enrichment score” 0.185.
`R5N` — result for “normalised enrichment score”: -0.223.
`S4K`: “normalised enrichment score” -0.0469.
`K3P` — result for “normalised enrichment score”: 0.276.
For `F9H`, “normalised enrichment score” read 0.0716.
For `Q7C`, “normalised enrichment score” read 0.0587.
`L8N`: “normalised enrichment score” 0.266.
